Measured values collected from several papers.
A part holds a random share of what one study measured.

Series 1
Target: RING finger protein unkempt homolog, zinc fingers 1-6, GST-SBP tag (UNK, Homo sapiens, UniProt Q9C0B0, residues 30-357)
Sequence of UniProt Q9C0B0 (30-357, looked up): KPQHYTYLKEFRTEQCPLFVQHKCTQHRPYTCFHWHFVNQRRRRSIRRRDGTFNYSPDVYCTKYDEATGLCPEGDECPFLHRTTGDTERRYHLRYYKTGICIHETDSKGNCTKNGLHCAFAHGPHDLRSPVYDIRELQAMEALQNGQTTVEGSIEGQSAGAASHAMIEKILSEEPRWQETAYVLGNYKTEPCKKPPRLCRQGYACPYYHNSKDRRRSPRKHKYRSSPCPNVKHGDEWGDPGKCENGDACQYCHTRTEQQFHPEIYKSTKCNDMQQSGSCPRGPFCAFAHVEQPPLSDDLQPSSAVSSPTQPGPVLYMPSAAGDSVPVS
Method: RNA Bind-n-Seq
Molecule type: RNA
Matrix: in vitro
Concentration: not given
Notes: RNA with constant flanks, ends assumed
Reference: input RNA pool
Direction: higher = stronger binding
Oligonucleotide | bound/input enrichment [ratio]
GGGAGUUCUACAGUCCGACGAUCGGAGGAGGGAUACGUUUCCACGAUAACUUCGGCUUUGAUGACCUAGUACGAGAUUUCAACCGCAUCUUCAGCGAUAUGGGGGCCUGGACCUUGCCUUCCCAUCCUCCUGAACUUCCAGGUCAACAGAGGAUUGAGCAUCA | 0.229
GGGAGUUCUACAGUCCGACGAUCGAUCCAGGCAGUAAAGAUCCAGAAGAAGAUUACCCCAAAUUUGGACUUUUGGAUCAGGACCUCCGUAACAUUGGUCCUGCUUAUGACAACCAAAAACAGAGCAGUGCUGUGUCUACUAGUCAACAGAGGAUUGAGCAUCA | 0.231
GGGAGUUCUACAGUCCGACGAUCGAAACUAAACAUCACAGCAAGCUCUAUCUCUGAGCUAUAAUUUGUUUUUAAUGCAAAGACACCCGUUUGAUAAUAUAUACUGUAAUCCUGAAACAUUUGUGUUACUUACCUUUGGAGGUACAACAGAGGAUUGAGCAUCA | 0.111
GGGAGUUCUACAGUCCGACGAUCGUCAAAUUCAAACUACAGUACUGUGUAAUUAUGUAUAAAGUUUUUUUAUUUAUUUGAAGUCCGACCCGAUAUACGUUUUUAAAUUUAACAUCUGGCUGGACAGUGUUCUAUUAACUCAUUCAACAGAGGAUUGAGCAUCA | 3.51
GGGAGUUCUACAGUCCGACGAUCAGCAGCCAUCUUAUCAACCUUCUGAACCCCAAAGGAAAGCCAGCAAACCAGCUGCUUGCUCUCCGGACUUUUUGCAAUUGCUUUGUUAGUCAGGCAGGACAAAAGCUCAUGAUGUCCCAGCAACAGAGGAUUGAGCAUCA | 0.237
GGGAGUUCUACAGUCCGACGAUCAUCAAGGGUAAAAUUCCAUUCUGAUAUCAAAAUGCAGUAUUCGCACCACUGUGAGCACCUUUCCGAGAGACUGAACAAACAGCGGGAAGCAGGUUUUCUCUGUGACUGUACCAUAGUGAUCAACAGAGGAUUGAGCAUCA | 0.246

Series 2
Target: Hepatocyte nuclear factor 3-beta, forkhead domain (FOXA2, Homo sapiens, UniProt Q9Y261, residues 142-269)
Method: protein-binding microarray
Molecule type: double-stranded DNA, one strand shown
Matrix: in vitro
Concentration: not given
Notes: k-mer, scored over probes, only values ≥0.25
Direction: higher = stronger binding
Target sequence (chain): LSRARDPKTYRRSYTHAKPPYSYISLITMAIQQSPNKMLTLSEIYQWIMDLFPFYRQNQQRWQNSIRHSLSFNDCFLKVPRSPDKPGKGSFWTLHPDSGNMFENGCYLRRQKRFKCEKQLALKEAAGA
Oligonucleotide | E-score
ATATAAAC | 0.378
CATGTTGA | 0.331
AACTTATA | 0.257
AATATGTA | 0.345
ATACTAGA | 0.333
ATATAATG | 0.292
ATTGTATG | 0.283
AACGTTAA | 0.275

Series 3
Target: Ras GTPase-activating protein-binding protein 1, C-terminal RGG region (G3BP1, Homo sapiens, UniProt Q13283)
Sequence of UniProt Q13283 (whole entry, looked up): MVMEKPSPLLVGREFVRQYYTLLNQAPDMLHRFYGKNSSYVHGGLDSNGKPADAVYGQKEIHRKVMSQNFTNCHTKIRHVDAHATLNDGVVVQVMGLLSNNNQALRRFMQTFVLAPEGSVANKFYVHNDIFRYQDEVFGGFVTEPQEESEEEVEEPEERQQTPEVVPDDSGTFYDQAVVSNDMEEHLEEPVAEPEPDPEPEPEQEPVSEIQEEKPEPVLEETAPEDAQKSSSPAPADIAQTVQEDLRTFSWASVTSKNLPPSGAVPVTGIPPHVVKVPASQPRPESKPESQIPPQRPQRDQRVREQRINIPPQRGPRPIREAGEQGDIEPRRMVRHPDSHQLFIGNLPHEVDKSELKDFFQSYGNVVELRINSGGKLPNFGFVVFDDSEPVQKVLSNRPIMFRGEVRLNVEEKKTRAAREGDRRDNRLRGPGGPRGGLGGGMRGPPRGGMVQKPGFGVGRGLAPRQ
Method: RNA Bind-n-Seq
Molecule type: RNA
Matrix: in vitro
Concentration: 1 µM
Notes: whole 134-nt RNA, ends assumed
Together with: 150 mM KCl
Reference: input library
Direction: higher = stronger binding
Oligonucleotide | log2 enrichment
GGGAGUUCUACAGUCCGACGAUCUAACUUUAGAGGAGGAUCUGAUGGAUAUUGCAGUGGACGUGGAUUUGGGGAUGGCUAUAAUGGGUAUGGAGGAGGACCUGGAGGUGGCAAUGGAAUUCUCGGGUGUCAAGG | -1.33
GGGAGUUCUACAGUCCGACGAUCCCUGUGCUACACAUCGUAUGUACCGAAUCGGGGUUUGGGGUUUUUUUGGGGUUUUUGGGGAAAGUAUUAUGUUACGCCGUUCGGAUCUGCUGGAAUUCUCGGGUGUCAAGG | 1.12
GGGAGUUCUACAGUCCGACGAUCUCCUGUGCUACACAUCGUAUGUACCGAAUCGGGCCCCCCGGCCCCCCGGCCCCCCGGGGAAAGUAUUAUGUUACGCCGUUCGGAUCUGCAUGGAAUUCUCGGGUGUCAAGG | -0.987
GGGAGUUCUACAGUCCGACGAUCUGGGAGGUGGAUUUUGUUUAUUUUUUUAGCUCAUUUCCAGGGGUGGGAAUUUUUUUUUAAUAUGUGUCAUGAAUAAAGUUGUGUUUGAAAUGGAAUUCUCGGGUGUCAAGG | 3.66
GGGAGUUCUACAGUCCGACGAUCUCCUGUGCUACACAUCGUAUGUACCGAAUCGGGGCCCCCCGGGCCCCCCGGGCCCCCCGGAAAGUAUUAUGUUACGCCGUUCGGAUCUGCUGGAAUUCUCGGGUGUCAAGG | -0.889
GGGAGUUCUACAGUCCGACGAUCUUUCUCCACAGGAGCCCCGCAAGUGAGCCAGCCACUGCGAGAGCAGAGUGAGGAUAUACCUGGAGCCAUUUCCUCUGCCCUGGCAGCCAUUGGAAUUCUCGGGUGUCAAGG | 0.0631
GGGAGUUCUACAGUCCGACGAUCAGCCGAGCGGGAACGGAACCGACAGCUGGAGCGAGAGAAACGUCGGGAGCACAGUCGGGAGAGGGACAGGGAGAGAGAGAGAGAAAGGGAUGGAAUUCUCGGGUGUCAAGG | -0.76
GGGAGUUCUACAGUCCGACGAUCUGGGAGGUGGAUUUUGUUUAUUUUUUUAGCUCAUUUCCAGGGGUGGGAAUUUUUUUUUAAUAUGUGCCAUGAAUAAAGUUGUUUUUGAAAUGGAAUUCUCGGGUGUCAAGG | 3.68
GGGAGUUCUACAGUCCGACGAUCCUCAAGUCCUGUGCUACACAUCGUAUGUACCGAAUCGGCCGGCCGGGGCCGGGAAAGUAUUAUGUUACGCCGUUCGGAUCUGCACUUCCAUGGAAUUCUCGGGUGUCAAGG | -1.11
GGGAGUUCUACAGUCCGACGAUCCCUGUGCUACACAUCGUAUGUACCGAAUCGGUUUUUUUGGGUUUUUUUGGGGUUUUUUUGGAAAGUAUUAUGUUACGCCGUUCGGAUCUGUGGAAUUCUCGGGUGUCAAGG | -1.47
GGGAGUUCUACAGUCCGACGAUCGCCUGGCGCUGGCCAACAAUAGCACCCUCACCAUUGGCACCAUCGAUGAGAUCCAGAAGCUGCACAUUCGCACAGUUCCCCUCUAUGAGUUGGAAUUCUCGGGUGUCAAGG | 1.49

Other studies, line by line
Substance | target | assay | system | conditions | scale | measurement | value
PhoQ, residues 284 288 289 292 302 303 SSTLLI | PhoP, residues 12 14 15 18 19 GHCSL (Escherichia coli, UniProt P23836) | Sort-seq, refers to: YFP reporter | E. coli | PhoQ-PhoP variant library, together with: 10 µM Mg2+ | reference: high Mg2+ state, higher = stronger signaling | fold induction | 3.27

For quick reference, copied from above (series 2):
Oligonucleotide | E-score
CATGTTGA | 0.331
AACTTATA | 0.257
AATATGTA | 0.345
ATACTAGA | 0.333
